# Experimental data pooled from the literature.
# Compare with care: the assays were run in different laboratories. Values joined by “and” are separate records of one study, mostly repeats; a detail may differ. Numbers after ± are the reported error.
SMILES,test,system,setting,how to read,quantity,value
O=c1[nH]c(=O)n([C@@H]2O[C@H](CO)[C@@H](O)[C@@H]2F)cc1CCCC[18F],,"nude mice, RG2 tumour, HSV1-tk expressing RG2 tumour",2 h post injection,,tumour uptake,0.16 ± 0.03 %ID/g
N=C(N)NCCC[C@@H](NC(=O)CCOCCOCCNC(=O)[C@H](CCCCNC(=O)CC[C@H](NC(=O)c1ccc(NCc2cnc3nc(N)[nH]c(=O)c3n2)cc1)C(=O)O)NC(=O)CO/N=C/[C@H](F)[C@@H](O)[C@H](O)[C@H](O)CO)C(=O)NCC(=O)N[C@H](CC(=O)O)C(N)=O [fluorine-18 labelled],,"nude mice, MDA-MB-231 xenograft, tumour","2.5 h, together with: unlabelled folic acid 200 µg",,tumour uptake,0.88 ± 0.3 %ID/g
CCNc1nc2c(c(N3CC(=O)Nc4cc(OC)ccc43)n1)CCC2,,"mice, A-375/TxR xenograft","intravenous, 2 mg/kg twice weekly, 3 weeks",,tumour growth inhibition,62.3%
O=c1[nH]c(=O)n([C@@H]2O[C@H](CO)[C@@H](O)[C@@H]2F)cc1CCCCC[18F],,"nude mice, RG2 tumour, wild-type RG2 tumour",2 h post injection,,tumour uptake,0.1 ± 0.03 %ID/g
CCCCCCCCCCCCCC(=O)N[C@@H](CCSC)C(=O)N[C@@H](C)C(=O)N[C@@H](CO)C(=O)N[C@@H](CCCNC(=N)N)C(=O)NCC(=O)N[C@@H](C)C(=O)N[C@@H](CC(C)C)C(=O)N[C@@H](CCCNC(=N)N)C(=O)N[C@@H](CCCNC(=N)N)C(=O)N[C@@H](CS)C(=O)N[C@@H](CC(C)C)C(=O)N[C@@H](CO)C(=O)N1CCC[C@H]1C(=O)NCC(=O)N[C@@H](CC(C)C)C(=O)N1CCC[C@H]1C(=O)N[C@@H](CCCNC(=N)N)C(=O)N[C@@H](CC(C)C)C(=O)N[C@@H](CC(C)C)C(=O)N[C@@H](Cc1c[nH]cn1)C(=O)N[C@@H](CC(C)C)C(=O)N[C@@H](CO)C(=O)N[C@@H](CCCNC(=N)N)C(=O)NCC(=O)N[C@@H](CC(C)C)C(=O)N[C@@H](C)C(N)=O,,"NOD-SCID mice, MDA-MB-231 orthotopic xenograft","intratumoral, 10 mg/kg every other day",,tumour mass,decreased
COc1cc(N2CCC(N3CCN(C)CC3)CC2)ccc1Nc1ncc(Cl)c(Nc2ccccc2P(C)(C)=O)n1,,"nude mice, NCI-H3122 xenograft","intraperitoneal, 10 mg/kg every other day, day 13",,tumour volume,163 mm3 and 305 mm3 and 155 mm3 and 294 mm3 and 313 mm3
C=CC(=O)Nc1cc(Nc2nccc(Nc3cc(Cl)c(F)cc3C(C)(C)O)n2)c(OC)cc1N1CC[C@@H](N(C)C)C1,,"NCI-H2073 EGFR SVD knock-in xenograft, BALB/c nude mice","oral, 50 mg/kg twice daily, 21 days, regression if TGI above 100 %",,tumour regression,87.5%
O=c1[nH]c(=O)n([C@@H]2O[C@H](CO)[C@@H](O)[C@@H]2F)cc1[125I],,"nude mice, RG2 tumour, HSV1-tk expressing RG2 tumour",2 h post injection,,tumour uptake,4.3 %ID/g and 4.37 %ID/g
C=CCn1c(=O)c2cnc(Nc3ccc(N4CCN(C)CC4)cc3)nc2n1-c1ccc2c(n1)[C@@](O)(CC)CC2,,"SW-620 xenograft, BALB/c nude mice","oral, 80 mg/kg, day 20, once daily x 21",,tumour growth inhibition,42.5%
NCc1cc2c(cc1F)C(=O)N(C1CCC(=O)NC1=O)C2 (stereo not drawn),,"mice, HCC PDX models","oral, 100 mg/kg twice daily, 21 days, 8 of 10 models",,tumour growth inhibition,16 to 100%
C[C@@H]1COCCN1c1cc([C@]2(O)C[C@H]3CC[C@@H](C2)O3)c2cnn(-c3cc[nH]n3)c2n1,,ATM-deficient gastric cancer PDX mice,"10 mg/kg once daily for 7 days, day 42",,tumour growth inhibition,107 ± 1.5%
O=c1[nH]c(=O)n([C@@H]2O[C@H](CO)[C@@H](O)[C@@H]2F)cc1CCC[18F],,"nude mice, RG2 tumour, wild-type RG2 tumour",2 h post injection,,tumour uptake,0.19 ± 0.1 %ID/g
CCCCC(=O)Nc1ccc(-c2ccc3ncn(CCC)c(=O)c3c2)cn1,,"mice, HCC827 xenograft","oral, 10 mg/kg daily, six days per week, three weeks",relative to: vehicle,tumour growth inhibition,46.5%
C=CC(=O)Nc1cc(Nc2ncc(C(=O)OC(C)C)c(-c3cn(C)c4ccccc34)n2)c(OC)cc1N(C)CCN(C)C,,"NCI-H2073 xenograft, EGFR wild type, BALB/c nude mice","oral, 30 mg/kg once daily, 21 days, regression if TGI above 100 %",,tumour regression,22.3%
CCCC[C@H]1C(=O)N(C)[C@@H](CCCC)C(=O)N[C@@H](CCCCNC(=O)CN2CCN(CC(=O)O)CCN(CC(=O)O)CC2)C(=O)N[C@H](C(=O)NCC(N)=O)CSCC(=O)N[C@@H](Cc2ccc(O)cc2)C(=O)N(C)[C@@H](C)C(=O)N[C@@H](CC(N)=O)C(=O)N2CCC[C@H]2C(=O)N[C@@H](Cc2c[nH]cn2)C(=O)N[C@@H](CCC(=O)O)C(=O)N2C[C@H](O)C[C@H]2C(=O)N[C@@H](Cc2c[nH]c3ccccc23)C(=O)N[C@@H](CO)C(=O)N[C@@H](Cc2cn(CC(=O)O)c3ccccc23)C(=O)N1C [gallium-68 labelled],PET,BALB/c nude mice U-87 MG xenograft,together with: excess unlabelled anti-PD-L1 antibody,,tumour uptake,decreased

# A few entries again:
SMILES,test,system,setting,how to read,quantity,value
C=CCn1c(=O)c2cnc(Nc3ccc(N4CCN(C)CC4)cc3)nc2n1-c1ccc2c(n1)[C@@](O)(CC)CC2,,"SW-620 xenograft, BALB/c nude mice","oral, 80 mg/kg, day 20, once daily x 21",,tumour growth inhibition,42.5%
O=c1[nH]c(=O)n([C@@H]2O[C@H](CO)[C@@H](O)[C@@H]2F)cc1CCC[18F],,"nude mice, RG2 tumour, wild-type RG2 tumour",2 h post injection,,tumour uptake,0.19 ± 0.1 %ID/g
